Results collected from several papers.
Protocols differ between the studies behind these lines. Values joined by “and” are separate records of one study, mostly repeats; a detail may differ. Numbers after ± are the reported error.

SMILES	test	system	setting	brain concentration
Cn1cc([C@H]2C[C@H]3CSC(N)=N[C@@]3(c3ccc(F)cc3F)CO2)cn1		male 129/SVE mouse, brain	subcutaneous, 3 mg/kg, 6 h	100 nM
O=S(=O)(c1ccc(-c2ccc3nccc(Nc4ccncn4)c3c2)cc1)N1CCOCC1		female BALB/c mouse, brain	intraperitoneal, 10 mg/kg, 0.08 h	90.9 ng/g and 87.4 ng/g
Cn1ncnc1[C@H]1c2n[nH]c(=O)c3cc(F)cc(c23)N[C@@H]1c1ccc(F)cc1		FVB mouse Mdr1a/b-/- Bcrp-/-, brain	oral, 0.15 mg/kg, 2 h, single dose	17.3 ± 3.8 ng/g
COc1cc2c(Nc3ccc(Cl)c(Cl)c3F)ncnc2cc1OC[C@@H]1C[C@@H]2CN(C)C[C@@H]2C1		FVB wild-type mouse	oral, 70 mg/kg, 2 h	720 ng/g
Cc1ccc2c(c1)C(=O)[C@]1(O)CCN(c3ccc4nc(C)ccc4c3)C1=N2		C57BL/6 mouse, brain	subcutaneous, 2 mg/kg, 30 min	400 ± 40 nM
CN1C(=O)c2ccccc2[S@+]([O-])c2ccc(C(=O)NCCc3cccs3)cc21		C57BL/6 mouse, male, brain	intraperitoneal, 30 mg/kg, single dose, 24 h, quantification limit 1 ng/mL	not detected
CCCCCN1C[C@H](O)[C@@H](O)[C@H](O)[C@@H]1CO	LC-MS/MS	Hexb-/- mouse, brain	oral, food admix, 30 mg/kg/day, about 75 days	160 nM
CN(C)CC#Cc1ccc2[nH]c3c(c2c1)-c1nc(N)ncc1CCC3		male CD-1 mouse, brain	intraperitoneal, 30 mg/kg, 1 h	416 ng/g
Cc1cc([C@H]2C[C@H]3[C@@H](C)SC(N)=N[C@@]3(c3ccc(F)cc3F)CO2)on1		male 129/SVE mouse, brain	subcutaneous, 50 mg/kg, 5 h	1480 nM
Cc1c2ccnc(C(=O)NCCN(C)C)c2cc2c3cc(O)ccc3n(C)c12		C57BL/6J mouse, brain	intraperitoneal, 10 mg/kg, 120 min	240 nM

Some of these lines once more:
SMILES	test	system	setting	brain concentration
Cn1ncnc1[C@H]1c2n[nH]c(=O)c3cc(F)cc(c23)N[C@@H]1c1ccc(F)cc1		FVB mouse Mdr1a/b-/- Bcrp-/-, brain	oral, 0.15 mg/kg, 2 h, single dose	17.3 ± 3.8 ng/g
